Experimental data pooled from the literature.
Each line is one published result; not all experiments were run side by side. Numbers after ± are the reported error.
UniProt P21729, sequence (whole entry, looked up): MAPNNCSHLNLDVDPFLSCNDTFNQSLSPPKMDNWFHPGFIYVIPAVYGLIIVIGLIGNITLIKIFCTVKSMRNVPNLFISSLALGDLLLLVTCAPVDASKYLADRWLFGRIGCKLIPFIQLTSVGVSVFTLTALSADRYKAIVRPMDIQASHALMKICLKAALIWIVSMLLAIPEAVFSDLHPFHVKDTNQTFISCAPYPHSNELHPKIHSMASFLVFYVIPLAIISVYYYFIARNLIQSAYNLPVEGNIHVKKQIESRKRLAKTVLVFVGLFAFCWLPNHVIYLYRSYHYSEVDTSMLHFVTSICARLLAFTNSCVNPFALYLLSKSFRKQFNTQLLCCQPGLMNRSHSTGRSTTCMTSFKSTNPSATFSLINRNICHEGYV

SMILES	tested on	assay	system	conditions	how to read	quantity	result
N=C(N)NCCC[C@@H]1NC(=O)[C@H](CCCCNC(=O)CC[C@H](NC(=O)CCOCCOCCOCCOCCNC(=O)CC[C@H](NC(=O)CN2CCN(CC(=O)O)CCN(CC(=O)O)CCN(CC(=O)O)CC2)C(=O)NCCOCCOCCOCCOCCC(=O)N[C@@H](CCC(=O)NCCCC[C@@H]2NC(=O)[C@@H](Cc3ccccc3)NC(=O)[C@H](CC(=O)O)NC(=O)CNC(=O)[C@H](CCCNC(=N)N)NC2=O)C(=O)NCCCC[C@@H]2NC(=O)[C@@H](Cc3ccccc3)NC(=O)[C@H](CC(=O)O)NC(=O)CNC(=O)[C@H](CCCNC(=N)N)NC2=O)C(=O)NCCCC[C@@H]2NC(=O)[C@@H](Cc3ccccc3)NC(=O)[C@H](CC(=O)O)NC(=O)CNC(=O)[C@H](CCCNC(=N)N)NC2=O)NC(=O)[C@@H](Cc2ccccc2)NC(=O)[C@H](CC(=O)O)NC(=O)CNC1=O [indium-111 labelled]	–	–	athymic nude mice, female, U-87 MG glioma xenograft, tumour and liver	intravenous, 24 h	baseline: tumour over liver	tumour to tissue ratio	4.19 ± 1.04
COc1cccc2c1C(=O)c1c(O)c3c(c(O)c1C2=O)C[C@@](O)(C(=O)CO)C[C@@H]3O[C@H]1C[C@H](NC(=N)CCCSSC[C@@H]2NC(=O)[C@H](CCCNC(=N)N)NC(=O)[C@H](Cc3c[nH]c4ccccc34)NC(=O)[C@H](CCCNC(=N)N)NC(=O)[C@H](Cc3c[nH]c4ccccc34)NC(=O)[C@H](CCCCNC(=O)CCN)NC(=O)[C@H](Cc3c[nH]c4ccccc34)NC(=O)[C@H](CCCNC(=N)N)NC(=O)[C@H](Cc3c[nH]c4ccccc34)NC(=O)[C@H](CCCNC(=N)N)NC2=O)[C@H](O)[C@H](C)O1	C2C12 cells	MTT	–	concentration not given, 72 h	baseline: control	viability	71%
N=C(N)NCCC[C@@H]1NC(=O)[C@H](CCCCNC(=O)CCOCCOCCOCCOCCNC(=O)CC[C@H](NC(=O)CCOCCOCCOCCOCCNC(=O)CC[C@H](NC(=O)CN2CCN(CC(=O)O)CCN(CC(=O)O)CCN(CC(=O)O)CC2)C(=O)NCCOCCOCCOCCOCCC(=O)N[C@@H](CCC(=O)NCCOCCOCCOCCOCCC(=O)NCCCC[C@@H]2NC(=O)[C@@H](Cc3ccccc3)NC(=O)[C@H](CC(=O)O)NC(=O)CNC(=O)[C@H](CCCNC(=N)N)NC2=O)C(=O)NCCOCCOCCOCCOCCC(=O)NCCCC[C@@H]2NC(=O)[C@@H](Cc3ccccc3)NC(=O)[C@H](CC(=O)O)NC(=O)CNC(=O)[C@H](CCCNC(=N)N)NC2=O)C(=O)NCCOCCOCCOCCOCCC(=O)NCCCC[C@@H]2NC(=O)[C@@H](Cc3ccccc3)NC(=O)[C@H](CC(=O)O)NC(=O)CNC(=O)[C@H](CCCNC(=N)N)NC2=O)NC(=O)[C@@H](Cc2ccccc2)NC(=O)[C@H](CC(=O)O)NC(=O)CNC1=O [indium-111 labelled]	–	–	athymic nude mice, female, U-87 MG glioma xenograft, tumour and kidney	intravenous, 72 h	baseline: tumour over kidney	tumour to tissue ratio	1 ± 0.21
CC[C@H](C)[C@H](NC(=O)[C@H](CO)NC(=O)[C@H](Cc1ccc(O)cc1)NC(=O)[C@H](Cc1ccc(O)cc1)NC(=O)[C@H](CC(N)=O)NC(=O)CNC(=O)[C@H](CO)NC(=O)[C@H](Cc1ccc(O)cc1)NC(=O)[C@H](CO)NC(=O)[C@H](CO)NC(=O)[C@H](CC(N)=O)NC(=O)COCCOCCNC(=O)CN1CCN(CC(=O)O)CCN(CC(=O)O)CCN(CC(=O)O)CC1)C(=O)N[C@@H](CC(C)C)C(N)=O [copper-64 labelled]	–	–	NOD/SCID mouse CAPAN-1 xenograft	intravenous, 2.5 h, added: 500-fold excess unlabelled compound	–	tissue uptake	1.21 ± 0.64 %ID/g
CCCNC(=O)[C@H](CC(C)C)NC(=O)[C@H](Cc1c[nH]cn1)NC(=O)CNC(=O)[C@@H](NC(=O)[C@H](C)NC(=O)[C@H](Cc1c[nH]c2ccccc12)NC(=O)[C@H](CCC(N)=O)NC(=O)[C@@H](Cc1ccccc1)NC(=O)CCCCCNC(=O)CN1CCN(CC(=O)O)CCN(CC(=O)O)CCN(CC(=O)O)CC1)C(C)C [indium-111 labelled]	Gastrin-releasing peptide receptor (Mus musculus, UniProt P21729)	biodistribution	CF-1 mice, kidneys	intravenous, 1 h, added: bombesin 100 µg, blocking	–	tissue uptake	1.44 ± 0.26 %ID/g
N=C(N)NCCC[C@@H]1NC(=O)[C@H](CCCCNC(=O)CNC(=O)CNC(=O)CNC(=O)CC[C@H](NC(=O)CCOCCOCCOCCOCCNC(=O)CC[C@H](NC(=O)CN2CCN(CC(=O)O)CCN(CC(=O)O)CCN(CC(=O)O)CC2)C(=O)NCCOCCOCCOCCOCCC(=O)N[C@@H](CCC(=O)NCC(=O)NCC(=O)NCC(=O)NCCCC[C@@H]2NC(=O)[C@@H](Cc3ccccc3)NC(=O)[C@H](CC(=O)O)NC(=O)CNC(=O)[C@H](CCCNC(=N)N)NC2=O)C(=O)NCC(=O)NCC(=O)NCC(=O)NCCCC[C@@H]2NC(=O)[C@@H](Cc3ccccc3)NC(=O)[C@H](CC(=O)O)NC(=O)CNC(=O)[C@H](CCCNC(=N)N)NC2=O)C(=O)NCC(=O)NCC(=O)NCC(=O)NCCCC[C@@H]2NC(=O)[C@@H](Cc3ccccc3)NC(=O)[C@H](CC(=O)O)NC(=O)CNC(=O)[C@H](CCCNC(=N)N)NC2=O)NC(=O)[C@@H](Cc2ccccc2)NC(=O)[C@H](CC(=O)O)NC(=O)CNC1=O [indium-111 labelled]	–	–	athymic nude mice, female, U-87 MG glioma xenograft, tumour and blood	intravenous, 1 h	baseline: tumour over blood	tumour to tissue ratio	80.7 ± 10.7
CCCC[C@H](NC(=O)CCCCCCCNC(=O)c1ccc(NN)nc1)C(=O)N[C@H]1CC(=O)NCCCC[C@@H](C(N)=O)NC(=O)[C@H](Cc2c[nH]c3ccccc23)NC(=O)[C@H](CCCNC(=N)N)NC(=O)[C@@H](Cc2ccccc2)NC(=O)[C@H](Cc2c[nH]cn2)NC1=O [technetium-99m labelled]	–	–	C57 mouse, B16/F1 melanoma, skin	2 h, added: L-lysine 12 mg co-injected	–	tissue uptake	0.54 ± 0.1 %ID/g
CCCC[C@H](NC(=O)CNC(=O)CNC(=O)c1ccc(NN)nc1)C(=O)N[C@H]1CC(=O)NCCCC[C@@H](C(N)=O)NC(=O)[C@H](Cc2c[nH]c3ccccc23)NC(=O)[C@H](CCCNC(=N)N)NC(=O)[C@@H](Cc2ccccc2)NC(=O)[C@H](Cc2c[nH]cn2)NC1=O [technetium-99m labelled]	–	–	C57 mouse, B16/F1 melanoma, heart	2 h, added: L-lysine 12 mg	–	uptake	0.1 ± 0.05 %ID/g
CSCC[C@H](NC(=O)[C@H](CC(C)C)NC(=O)[C@H](Cc1c[nH]cn1)NC(=O)CNC(=O)[C@@H](NC(=O)[C@H](C)NC(=O)[C@H](Cc1c[nH]c2ccccc12)NC(=O)[C@H](CCC(N)=O)NC(=O)CCCCCNC(=O)CNC(=O)CNC(=O)CNC(=O)CSC(C)=O)C(C)C)C(N)=O [technetium-99m labelled]	–	–	Swiss mouse, heart	intravenous, 18.5 MBq, 5 min	–	tissue uptake	0.61 ± 0.2 %ID/g
CC(C)(C)n1cc(CN(Cc2cn(CCOCCOCCOCCOCCOCCOCCC(=O)N[C@@H](CCCNC(=N)N)C(=O)N[C@@H](CCCCN)C(=O)N[C@@H](CCCCN)C(=O)N[C@@H](CCCNC(=N)N)C(=O)N[C@@H](CCCNC(=N)N)C(=O)N[C@@H](CCC(N)=O)C(=O)N[C@@H](CCCNC(=N)N)C(=O)N[C@@H](CCCNC(=N)N)C(=O)N[C@@H](CCCNC(=N)N)C(N)=O)nn2)Cc2cn(C(C)(C)C)nn2)nn1	OVCAR-5	cellular uptake, LC-ESI-MS/MS	–	200 µM, 10 min, added: CuSO4 100 µM and ascorbate 500 µM	–	intracellular concentration	69 ± 2 µM

Repeated from above:
SMILES	tested on	assay	system	conditions	how to read	quantity	result
CC[C@H](C)[C@H](NC(=O)[C@H](CO)NC(=O)[C@H](Cc1ccc(O)cc1)NC(=O)[C@H](Cc1ccc(O)cc1)NC(=O)[C@H](CC(N)=O)NC(=O)CNC(=O)[C@H](CO)NC(=O)[C@H](Cc1ccc(O)cc1)NC(=O)[C@H](CO)NC(=O)[C@H](CO)NC(=O)[C@H](CC(N)=O)NC(=O)COCCOCCNC(=O)CN1CCN(CC(=O)O)CCN(CC(=O)O)CCN(CC(=O)O)CC1)C(=O)N[C@@H](CC(C)C)C(N)=O [copper-64 labelled]	–	–	NOD/SCID mouse CAPAN-1 xenograft	intravenous, 2.5 h, added: 500-fold excess unlabelled compound	–	tissue uptake	1.21 ± 0.64 %ID/g
